Measured values pooled from the literature.
Each line is one published result; not all experiments were run side by side. Several values in a cell are separate wells, animals, samples, runs or records. ± gives the spread as reported.
B1: PP6 regulatory subunit 1 (human); sequence looked up; chain MFWKFDLHTSSHLDTLLEREDLSLPELLDEEDVLQECKVVNRKLLDFLLQPPHLQAMVAWVTQEPPDSGEERLRYKYPSVACEILTSDVPQINDALGADESLLNRLYGFLQSTGSLNPLLASFFSKVMGILINRKTDQLVSFLRKKDDFVDLLLQHIGTSAIMDLLLRLLTCVERPQLRQDVVNWLNEEKIVQRLIEQIHPSKDENQHSNASQSLCDIIRLSREQMIQVQDSPEPDQLLATLEKQETIEQLLSNMFEGEQSQSVIVSGIQVLLTLLEPRRPRSESVTVNSFFSSVDGQLELLAQGALESTVSSVGALHALRPRLSCFHQLLLEPPKLEPLQMTWGMLAPPLGNTRLHVVKLLASALSANDAALTHELLALDVPNTMLDLFFHYVFNNFLHAQVEGCVSTMLSLGPPPDSSPETPIQNPVVKHLLQQCRLVERILTSWEENDRVQCAGGPRKGYMGHLTRVAGALVQNTEKGPNAEQLRQLLKELPSEQQEQWEAFVSGPLAETNKKNMVDLVNTHHLHSSSDDEDDRLKEFNFPEEAVLQQAFMDFQMQRMTSAFIDHFGFNDEEFGEQEESVNAPFDKTANITFSLNADDENPNANLLEICYKDRIQQFDDDEEEEDEEEAQGSGESDGEDGAWQGSQLARGARLGQPPGVRSGGSTDSEDEEEEDEEEEEDEEGIGCAARGGATPLSYPSPGPQPPGPSWTATFDPVPTDAPTSPRVSGEEELHTGPPAPQGPLSVPQGLPTQSLASPPARDALQLRSQDPTPPSAPQEATEGSKVTEPSAPCQALVSIGDLQATFHGIRSAPSSSDSATRDPSTSVPASGAHQPPQTTEGEKSPEPLGLPQSQSAQALTPPPIPNGSAPEGPASPGSQ
B2: human TGM1; sequence looked up; chain MMDGPRSDVGRWGGNPLQPPTTPSPEPEPEPDGRSRRGGGRSFWARCCGCCSCRNAADDDWGPEPSDSRGRGSSSGTRRPGSRGSDSRRPVSRGSGVNAAGDGTIREGMLVVNGVDLLSSRSDQNRREHHTDEYEYDELIVRRGQPFHMLLLLSRTYESSDRITLELLIGNNPEVGKGTHVIIPVGKGGSGGWKAQVVKASGQNLNLRVHTSPNAIIGKFQFTVRTQSDAGEFQLPFDPRNEIYILFNPWCPEDIVYVDHEDWRQEYVLNESGRIYYGTEAQIGERTWNYGQFDHGVLDACLYILDRRGMPYGGRGDPVNVSRVISAMVNSLDDNGVLIGNWSGDYSRGTNPSAWVGSVEILLSYLRTGYSVPYGQCWVFAGVTTTVLRCLGLATRTVTNFNSAHDTDTSLTMDIYFDENMKPLEHLNHDSVWNFHVWNDCWMKRPDLPSGFDGWQVVDATPQETSSGIFCCGPCSVESIKNGLVYMKYDTPFIFAEVNSDKVYWQRQDDGSFKIVYVEEKAIGTLIVTKAISSNMREDITYLYKHPEGSDAERKAVETAAAHGSKPNVYANRGSAEDVAMQVEAQDAVMGQDLMVSVMLINHSSSRRTVKLHLYLSVTFYTGVSGTIFKETKKEVELAPGASDRVTMPVAYKEYRPHLVDQGAMLLNVSGHVKESGQVLAKQHTFRLRTPDLSLTLLGAAVVGQECEVQIVFKNPLPVTLTNVVFRLEGSGLQRPKILNVGDIGGNETVTLRQSFVPVRPGPRQLIASLDSPQLSQVHGVIQVDVAPAPGDGGFFSDAGGDSHLGETIPMASRGGA
B3: sequence looked up; chain AARVLIIGSGGREHTLAWKLAQSHHVKQVLVAPGNAGTACSEKISNTAISISDHTALAQFCKEKKIEFVVVGPEAPLAAGIVGNLRSAGVQCFGPTAEAAQLESSKRFAKEFMDRHGIPTAQWKAFTKPEEACSFILSADFPALVVKASGLAAGKGVIVAKSKEEACKAVQEIMQEKAFGAAGETIVIEELLDGEEVSCLCFTDGKTVAPMPPAQDHKRLLEGDGGPNTGGMGAYCPAPQVSNDLLLKIKDTVLQRTVDGMQQEGTPYTGILYAGIMLTKNGPKVLEFNCRFGDPECQVILPLLKSDLYEVIQSTLDGLLCTSLPVWLENHTALTVVMASKGYPGDYTKGVEITGFPEAQALGLEVFHAGTALKNGKVVTHGGRVLAVTAIRENLISALEEAKKGLAAIKFEGAIYRKDVGFRAIAFLQQPRSLTYKESGVDIAAGNMLVKKIQPLAKATSRSGCKVDLGGFAGLFDLKAAGFKDPLLASGTDGVGTKLKIAQLCNKHDTIGQDLVAMCVNDILAQGAEPLFFLDYFSCGKLDLSVTEAVVAGIAKACGKAGCALLGGETAEMPDMYPPGEYDLAGFAVGAMERDQKLPHLERITEGDVVVGIASSGLHSNGFSLVRKIVAKSSLQYSSPAPDGCGDQTLGDLLLTPTRIYSHSLLPVLRSGHVKAFAHITGGGLLENIPRVLPEKLGVDLDAQTWRIPRVFSWLQQEGHLSEEEMARTFNCGVGAVLVVSKEQTEQILRDIQQHKEEAWVIGSVVARAEGSPRVKVKNLIESMQINGSVLKNGSLTNHFSFEKKKARVAVLISGTGSNLQALIDSTREPNSSAQIDIVISNKAAVAGLDKAERAGIPTRVINHKLYKNRVEFDSAIDLVLEEFSIDIVCLAGFMRILSGPFVQKWNGKMLNIHPSLLPSFKGSNAHEQALETGVTVTGCTVHFVAEDVDAGQIILQEAVPVKRGDTVATLSERVKLAEHKIFPAALQLVASGTVQLGENGKICWVKEE
B4: human lamin B1; sequence looked up; chain ATATPVPPRMGSRAGGPTTPLSPTRLSRLQEKEELRELNDRLAVYIDKVRSLETENSALQLQVTEREEVRGRELTGLKALYETELADARRALDDTARERAKLQIELGKCKAEHDQLLLNYAKKESDLNGAQIKLREYEAALNSKDAALATALGDKKSLEGDLEDLKDQIAQLEASLAAAKKQLADETLLKVDLENRCQSLTEDLEFRKSMYEEEINETRRKHETRLVEVDSGRQIEYEYKLAQALHEMREQHDAQVRLYKEELEQTYHAKLENARLSSEMNTSTVNSAREELMESRMRIESLSSQLSNLQKESRACLERIQELEDLLAKEKDNSRRMLTDKEREMAEIRDQMQQQLNDYEQLLDVKLALDMEISAYRKLLEGEEERLKLSPSPSSRVTVSRASSSRSVRTTRGKRKRVDVEESEASSSVSISHSASATGNVCIEEIDVDGKFIRLKNTSEQDQPMGGWEMIRKIGDTSVSYKYTSRYVLKAGQTVTIWAANAGVTASPPTDLIWKNQNSWGTGEDVKVILKNSQGEEVAQRSTVFKTTIPEEEEEEEEAAGVVVEEELFHQQGTPRASNRSC
B5: human FHL1; sequence looked up; chain AEKFDCHYCRDPLQGKKYVQKDGHHCCLKCFDKFCANTCVECRKPIGADSKEVHYKNRFWHDTCFRCAKCLHPLANETFVAKDNKILCNKCTTREDSPKCKGCFKAIVAGDQNVEYKGTVWHKDCFTCSNCKQVIGTGSFFPKGEDFYCVTCHETKFAKHCVKCNKAITSGGITYQDQPWHADCFVCVTCSKKLAGQRFTAVEDQYYCVDCYKNFVAKKCAGCKNPITGKRTVSRVSHPVSKARKPPVCHGKRLPLTLFPSANLRGRHPGGERTCPSWVVVLYRKNRSLAAPRGPGLVKAPVWWPMKDNPGTTTASTAKNAP
B6: human AHCYL1; sequence looked up; chain SMPDAMPLPGVGEELKQAKEIEDAEKYSFMATVTKAPKKQIQFADDMQEFTKFPTKTGRRSLSRSISQSSTDSYSSAASYTDSSDDEVSPREKQQTNSKGSSNFCVKNIKQAEFGRREIEIAEQDMSALISLRKRAQGEKPLAGAKIVGCTHITAQTAVLIETLCALGAQCRWSACNIYSTQNEVAAALAEAGVAVFAWKGESEDDFWWCIDRCVNMDGWQANMILDDGGDLTHWVYKKYPNVFKKIRGIVEESVTGVHRLYQLSKAGKLCVPAMNVNDSVTKQKFDNLYCCRESILDGLKRTTDVMFGGKQVVVCGYGEVGKGCCAALKALGAIVYITEIDPICALQACMDGFRVVKLNEVIRQVDVVITCTGNKNVVTREHLDRMKNSCIVCNMGHSNTEIDVTSLRTPELTWERVRSQVDHVIWPDGKRVVLLAEGRLLNLSCSTVPTFVLSITATTQALALIELYNAPEGRYKQDVYLLPKKMDEYVASLHLPSFDAHLTELTDDQAKYLGLNKNGPFKPNYYRY
UniProt P26368, sequence (whole entry, looked up): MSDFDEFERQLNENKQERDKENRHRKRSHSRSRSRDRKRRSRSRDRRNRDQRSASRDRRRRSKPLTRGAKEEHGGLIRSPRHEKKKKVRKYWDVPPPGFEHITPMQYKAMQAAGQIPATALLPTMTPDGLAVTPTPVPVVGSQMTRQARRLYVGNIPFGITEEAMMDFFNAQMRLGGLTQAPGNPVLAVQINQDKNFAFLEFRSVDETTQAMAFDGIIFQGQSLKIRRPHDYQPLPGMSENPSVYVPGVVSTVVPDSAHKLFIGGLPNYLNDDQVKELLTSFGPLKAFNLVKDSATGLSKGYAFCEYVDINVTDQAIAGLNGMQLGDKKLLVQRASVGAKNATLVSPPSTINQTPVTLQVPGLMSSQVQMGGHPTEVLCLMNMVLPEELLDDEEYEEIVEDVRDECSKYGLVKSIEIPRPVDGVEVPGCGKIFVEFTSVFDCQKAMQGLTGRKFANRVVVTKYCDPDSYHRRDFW

PKRSFIESNV — normalised SPR binding response (construct, MBP fusion, human SCRIB, PDZ 3-4; surface plasmon resonance; peptide; concentration not given; higher = stronger binding): 81.8 normalised RU
B1 (PP6 regulatory subunit 1) — log2 fold change (PP6C (human); co-immunoprecipitation, IP-MS; CYB5R4 knockout cells; concentration not given; relative to: CYB5R4 knockout over parental): -2.84
FGA (Homo sapiens, UniProt P02671) — cross-linked residues (HTR2A (Homo sapiens, UniProt P28223); cross-linking MS; with: DSSO): K100 to K191
B2 (human TGM1) — log2 fold change (PP6C (human); co-immunoprecipitation, IP-MS; CYB5R4 knockout cells; concentration not given; relative to: CYB5R4 knockout over parental): 0.91
GSGAGKETEC — binding intensity (construct, MBP fusion, human SCRIB, PDZ 3-4; automated holdup; peptide, crude extract; concentration not given, uncorrected, unit not given; relative to: biotin control resin, higher = stronger binding): 0.311
B3 — log2 fold change (PP6C (human); co-immunoprecipitation, IP-MS; CYB5R4 knockout cells; concentration not given; relative to: CYB5R4 knockout over parental): -1.65
VVVGAVGVGK — remaining protein (HLA-A*11:01 peptide-β2M single-chain trimer; western blot, measured: pMHC-I; peptide, 293T cells; 6 h, unit not given, with: 100 µg/mL cycloheximide; relative to: time zero): 0.936 and 0.89 and 0.934
maraviroc — total Tau level (Tau; mice, NSG hu-PBL, HIV-infected, brain SSC and FC regions; ip, 120 mg/kg twice daily, 3 weeks post-infection, normalized to β-actin; relative to: untreated HIV-infected mice): no effect
alpinetin — inhibition (BSA glycation; fluorescence; concentration not given, with: methylglyoxal): 25.2% and 29%
RSRKREIL — t1/2 (HLA-B8; β2m complex dissociation; peptide; 37 °C): 1 h
EKPIDSETKM — binding intensity (construct, MBP fusion, human SCRIB, PDZ 3-4; automated holdup; peptide, crude extract; concentration not given, corrected by standard peak, unit not given; relative to: biotin control resin, higher = stronger binding): 0.165
B4 (human lamin B1) — log2 fold change (PP6C (human); co-immunoprecipitation, IP-MS; CYB5R4 knockout cells; concentration not given; relative to: CYB5R4 knockout over parental): -0.49
colistin — MIC (Klebsiella pneumoniae; broth microdilution; clinical isolate RKI-No_80/15): 1 µg/mL
QSARYRDTEL — normalised SPR binding response (construct, MBP fusion, human SCRIB, PDZ 3-4; surface plasmon resonance; peptide; concentration not given; higher = stronger binding): 38.5 normalised RU
GEMVGQARILAQATSDLVNAIKDA — mean rupture force (vinculin head domain Vd1; complex rupture, AFM single-molecule force spectroscopy; peptide; double traces, C-terminal pulling, 800 nm/s): 45.3 pN
B5 (human FHL1) — log2 fold change (PP6C (human); co-immunoprecipitation, IP-MS; CYB5R4 knockout cells; concentration not given; relative to: CYB5R4 knockout over parental): -2.14
VVVGACGVGK — remaining protein (HLA-A*11:01 peptide-β2M single-chain trimer; western blot, measured: pMHC-I; peptide, 293T cells; 48 h, unit not given, with: 100 µg/mL cycloheximide; relative to: time zero): 0.686 and 0.684
B6 (human AHCYL1) — log2 fold change (PP6C (human); co-immunoprecipitation, IP-MS; CYB5R4 knockout cells; concentration not given; relative to: CYB5R4 knockout over parental): -0.71
VVVGASGVGK — remaining protein (HLA-A*11:01 peptide-β2M single-chain trimer; western blot, measured: pMHC-I; peptide, 293T cells; 18 h, unit not given, with: 100 µg/mL cycloheximide; relative to: time zero): 0.733 and 0.762 and 0.722
Peginesatide — mRNA fold induction (UT7/EPO; RT-qPCR, measured: MAFF; concentration not given, 90 min; relative to: vehicle): 3 fold
KDECVIATEV — binding intensity (construct, MBP fusion, human SCRIB, PDZ 3-4; automated holdup; peptide, purified PDZ protein; concentration not given, unit not given; relative to: biotin control resin, higher = stronger binding): 0.131
GGGUGGAUUUCUCAUGAA (ssRNA) — Kd (U2AF2 148-342 (Homo sapiens, UniProt P26368); MST; RNA): 21.7 ± 2 µM
I-BET151 — photocrosslinking (BRD4 bromodomains BRD4 D1 and D2; SDS-PAGE): no effect
Malic enzyme 2 S121Q (human) — Hill coefficient (enzyme activity, NADH absorbance; without fumarate, with: L-malate varied): 1.67 ± 0.07
transthyretin — enrichment fold (SFN human; pull-down LC-MS/MS; relative to: blank): 5.89

Excerpt of the above:
B2 (human TGM1) — log2 fold change (PP6C (human); co-immunoprecipitation, IP-MS; CYB5R4 knockout cells; concentration not given; relative to: CYB5R4 knockout over parental): 0.91
GSGAGKETEC — binding intensity (construct, MBP fusion, human SCRIB, PDZ 3-4; automated holdup; peptide, crude extract; concentration not given, uncorrected, unit not given; relative to: biotin control resin, higher = stronger binding): 0.311
B3 — log2 fold change (PP6C (human); co-immunoprecipitation, IP-MS; CYB5R4 knockout cells; concentration not given; relative to: CYB5R4 knockout over parental): -1.65
VVVGAVGVGK — remaining protein (HLA-A*11:01 peptide-β2M single-chain trimer; western blot, measured: pMHC-I; peptide, 293T cells; 6 h, unit not given, with: 100 µg/mL cycloheximide; relative to: time zero): 0.936 and 0.89 and 0.934
